Experimental data from different studies.
A part holds a random share of what one study measured.
UniProt Q9BX84, sequence (whole entry, looked up): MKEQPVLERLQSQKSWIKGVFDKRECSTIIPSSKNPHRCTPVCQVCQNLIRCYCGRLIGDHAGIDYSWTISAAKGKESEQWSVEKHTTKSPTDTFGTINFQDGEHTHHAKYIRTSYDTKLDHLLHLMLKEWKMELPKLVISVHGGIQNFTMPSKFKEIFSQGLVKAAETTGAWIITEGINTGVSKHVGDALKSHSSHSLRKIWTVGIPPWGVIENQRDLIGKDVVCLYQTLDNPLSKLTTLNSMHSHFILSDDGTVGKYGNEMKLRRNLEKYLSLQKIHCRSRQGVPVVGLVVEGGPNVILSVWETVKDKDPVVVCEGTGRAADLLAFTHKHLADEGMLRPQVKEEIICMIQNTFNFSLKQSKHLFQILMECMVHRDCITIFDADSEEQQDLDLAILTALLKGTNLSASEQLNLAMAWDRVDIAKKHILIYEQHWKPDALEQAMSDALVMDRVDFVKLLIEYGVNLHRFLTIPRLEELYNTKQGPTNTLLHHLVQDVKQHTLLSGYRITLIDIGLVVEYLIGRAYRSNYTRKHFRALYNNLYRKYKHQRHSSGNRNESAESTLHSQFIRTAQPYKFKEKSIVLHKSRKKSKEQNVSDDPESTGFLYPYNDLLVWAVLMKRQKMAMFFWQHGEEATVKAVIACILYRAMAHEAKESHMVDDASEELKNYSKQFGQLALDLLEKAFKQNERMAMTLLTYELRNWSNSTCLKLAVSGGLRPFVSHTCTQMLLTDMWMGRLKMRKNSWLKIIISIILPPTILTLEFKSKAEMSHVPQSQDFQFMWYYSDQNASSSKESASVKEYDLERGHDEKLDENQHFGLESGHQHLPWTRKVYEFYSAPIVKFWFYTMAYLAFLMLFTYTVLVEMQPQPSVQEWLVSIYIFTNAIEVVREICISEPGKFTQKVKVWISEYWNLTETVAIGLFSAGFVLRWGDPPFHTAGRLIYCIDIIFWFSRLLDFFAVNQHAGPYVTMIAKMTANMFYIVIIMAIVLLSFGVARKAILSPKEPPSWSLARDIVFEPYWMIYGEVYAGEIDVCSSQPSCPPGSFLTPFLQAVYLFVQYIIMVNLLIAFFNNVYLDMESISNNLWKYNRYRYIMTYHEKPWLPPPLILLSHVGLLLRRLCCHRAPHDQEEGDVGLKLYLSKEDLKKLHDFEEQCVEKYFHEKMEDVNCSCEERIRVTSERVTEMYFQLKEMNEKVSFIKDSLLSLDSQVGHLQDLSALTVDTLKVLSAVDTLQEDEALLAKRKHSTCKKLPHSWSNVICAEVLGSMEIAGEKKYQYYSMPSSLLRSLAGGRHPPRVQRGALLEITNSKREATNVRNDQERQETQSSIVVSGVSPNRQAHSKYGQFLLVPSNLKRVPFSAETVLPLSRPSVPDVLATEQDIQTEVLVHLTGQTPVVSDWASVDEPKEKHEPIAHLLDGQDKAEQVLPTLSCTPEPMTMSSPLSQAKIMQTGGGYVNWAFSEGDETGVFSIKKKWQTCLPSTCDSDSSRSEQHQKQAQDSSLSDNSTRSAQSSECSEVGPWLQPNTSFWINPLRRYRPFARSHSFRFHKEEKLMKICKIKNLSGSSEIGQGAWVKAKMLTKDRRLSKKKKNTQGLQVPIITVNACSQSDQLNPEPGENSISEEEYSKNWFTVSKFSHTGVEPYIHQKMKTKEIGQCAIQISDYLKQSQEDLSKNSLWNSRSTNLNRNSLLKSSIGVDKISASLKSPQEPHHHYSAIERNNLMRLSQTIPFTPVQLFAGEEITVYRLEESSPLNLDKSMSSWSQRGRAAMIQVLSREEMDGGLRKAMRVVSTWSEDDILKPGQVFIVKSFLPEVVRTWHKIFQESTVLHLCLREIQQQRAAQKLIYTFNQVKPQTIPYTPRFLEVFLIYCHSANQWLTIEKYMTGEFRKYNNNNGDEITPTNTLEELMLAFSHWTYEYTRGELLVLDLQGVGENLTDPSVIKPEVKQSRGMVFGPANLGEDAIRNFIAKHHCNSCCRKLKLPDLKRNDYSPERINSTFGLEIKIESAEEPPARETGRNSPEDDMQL
UniProt Q9H0K1, sequence (whole entry, looked up): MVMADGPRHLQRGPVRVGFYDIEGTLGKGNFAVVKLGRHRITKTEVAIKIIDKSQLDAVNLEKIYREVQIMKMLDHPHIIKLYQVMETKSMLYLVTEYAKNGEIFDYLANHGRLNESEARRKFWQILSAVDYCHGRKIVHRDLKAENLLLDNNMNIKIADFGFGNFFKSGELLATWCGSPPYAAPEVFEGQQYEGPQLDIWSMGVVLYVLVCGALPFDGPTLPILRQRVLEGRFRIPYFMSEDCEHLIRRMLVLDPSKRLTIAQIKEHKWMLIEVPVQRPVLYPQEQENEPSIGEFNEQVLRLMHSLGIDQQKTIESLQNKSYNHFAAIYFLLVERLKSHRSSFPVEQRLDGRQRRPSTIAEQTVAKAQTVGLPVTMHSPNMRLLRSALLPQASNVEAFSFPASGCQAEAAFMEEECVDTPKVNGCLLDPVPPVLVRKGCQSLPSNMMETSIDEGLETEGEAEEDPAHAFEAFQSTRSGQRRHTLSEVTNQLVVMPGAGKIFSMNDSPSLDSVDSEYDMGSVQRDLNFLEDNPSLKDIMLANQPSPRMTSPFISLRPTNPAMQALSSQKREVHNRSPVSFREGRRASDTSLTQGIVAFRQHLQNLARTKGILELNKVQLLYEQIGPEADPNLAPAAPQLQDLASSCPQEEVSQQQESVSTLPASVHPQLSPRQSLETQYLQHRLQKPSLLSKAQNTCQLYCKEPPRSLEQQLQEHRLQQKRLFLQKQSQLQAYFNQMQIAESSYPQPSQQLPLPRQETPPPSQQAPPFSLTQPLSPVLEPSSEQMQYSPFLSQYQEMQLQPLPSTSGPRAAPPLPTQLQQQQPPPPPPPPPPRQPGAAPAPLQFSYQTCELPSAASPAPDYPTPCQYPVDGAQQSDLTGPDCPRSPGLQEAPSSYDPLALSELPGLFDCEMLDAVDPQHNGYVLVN
UniProt O00329, sequence (whole entry, looked up): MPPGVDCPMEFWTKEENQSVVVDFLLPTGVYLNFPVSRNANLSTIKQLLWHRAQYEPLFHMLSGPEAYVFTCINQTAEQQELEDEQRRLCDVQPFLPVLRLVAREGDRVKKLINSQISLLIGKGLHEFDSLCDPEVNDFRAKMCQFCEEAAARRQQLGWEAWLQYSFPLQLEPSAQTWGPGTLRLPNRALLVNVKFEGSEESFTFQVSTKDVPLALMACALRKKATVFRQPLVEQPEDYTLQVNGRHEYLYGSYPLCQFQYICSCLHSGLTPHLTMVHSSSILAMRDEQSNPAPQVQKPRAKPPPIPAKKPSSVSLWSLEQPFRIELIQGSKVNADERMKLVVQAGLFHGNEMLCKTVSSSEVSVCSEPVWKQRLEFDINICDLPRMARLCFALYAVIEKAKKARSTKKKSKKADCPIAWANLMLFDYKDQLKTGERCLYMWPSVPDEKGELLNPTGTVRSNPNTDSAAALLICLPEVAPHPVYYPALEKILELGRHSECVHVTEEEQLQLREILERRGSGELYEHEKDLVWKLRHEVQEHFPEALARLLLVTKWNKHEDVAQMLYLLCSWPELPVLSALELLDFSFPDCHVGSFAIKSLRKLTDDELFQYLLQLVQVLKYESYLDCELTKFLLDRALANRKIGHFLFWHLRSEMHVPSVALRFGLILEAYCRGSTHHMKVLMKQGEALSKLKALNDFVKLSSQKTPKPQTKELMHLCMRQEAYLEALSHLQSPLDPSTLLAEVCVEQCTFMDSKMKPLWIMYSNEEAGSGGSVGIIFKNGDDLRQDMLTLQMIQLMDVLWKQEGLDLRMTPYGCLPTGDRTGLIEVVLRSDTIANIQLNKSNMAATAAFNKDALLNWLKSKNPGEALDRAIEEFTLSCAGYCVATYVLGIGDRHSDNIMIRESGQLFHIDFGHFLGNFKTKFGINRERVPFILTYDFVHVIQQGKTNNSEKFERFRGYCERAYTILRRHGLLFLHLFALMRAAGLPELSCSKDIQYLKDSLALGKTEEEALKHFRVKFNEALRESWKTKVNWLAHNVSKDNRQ

Set 1 — organism: Sarcocystis neurona; read-out: parasite growth; tested at: 10 µM; time: 96 h; notes: second screen; relative to: untreated; quantity: log2 fold change
CCN1CCC[C@H]1CNC(=O)c1cc(S(N)(=O)=O)ccc1OC: 0.08
COc1cc([C@@H]2c3cc4c(cc3[C@@H](O[C@@H]3O[C@@H]5CO[C@@H](C)O[C@H]5[C@H](O)[C@H]3O)[C@H]3COC(=O)[C@H]23)OCO4)cc(OC)c1O: 0.54
CCOC(=O)OC(C)OC1=C(C(=O)Nc2ccccn2)N(C)S(=O)(=O)c2ccccc21 (stereo not shown): 0.41
NS(=O)(=O)c1cc2c(cc1C(F)(F)F)NCNS2(=O)=O: 0.36
CC1COc2c(N3CCN(C)CC3)c(F)cc3c(=O)c(C(=O)O)cn1c23 (stereo not shown): 0.35
O=C(CCCN1CCC(O)(c2ccc(Cl)cc2)CC1)c1ccc(F)cc1: -0.79

Set 2 — read-out: binding; tested at: 1 µM; quantity: remaining binding
Compound: CN1CCN(C(=O)c2ccc(NC(=O)Nc3ccc(N(C)c4ccnc(Nc5ccc(CS(C)(=O)=O)cc5)n4)cc3)cc2)CC1
AP2-associated protein kinase 1 (AAK1, Homo sapiens, UniProt Q2M2I8); competition with immobilised ligand: 19%
Serine/threonine-protein kinase SIK2 (SIK2, Homo sapiens, UniProt Q9H0K1); competition with immobilised ligand: 56%
Serine/threonine-protein kinase 38 (STK38, Homo sapiens, UniProt Q15208): 54%
Phosphatidylinositol 4,5-bisphosphate 3-kinase catalytic subunit delta isoform (PIK3CD, Homo sapiens, UniProt O00329): 100%

Set 3 — read-out: enzyme activity; action: inhibitor; tested at: 0.5 µM; relative to: control; quantity: remaining activity
Target: Serine/threonine-protein kinase MARK2 (MARK2, Homo sapiens, UniProt Q7KZI7)
UniProt Q7KZI7, sequence (whole entry, looked up): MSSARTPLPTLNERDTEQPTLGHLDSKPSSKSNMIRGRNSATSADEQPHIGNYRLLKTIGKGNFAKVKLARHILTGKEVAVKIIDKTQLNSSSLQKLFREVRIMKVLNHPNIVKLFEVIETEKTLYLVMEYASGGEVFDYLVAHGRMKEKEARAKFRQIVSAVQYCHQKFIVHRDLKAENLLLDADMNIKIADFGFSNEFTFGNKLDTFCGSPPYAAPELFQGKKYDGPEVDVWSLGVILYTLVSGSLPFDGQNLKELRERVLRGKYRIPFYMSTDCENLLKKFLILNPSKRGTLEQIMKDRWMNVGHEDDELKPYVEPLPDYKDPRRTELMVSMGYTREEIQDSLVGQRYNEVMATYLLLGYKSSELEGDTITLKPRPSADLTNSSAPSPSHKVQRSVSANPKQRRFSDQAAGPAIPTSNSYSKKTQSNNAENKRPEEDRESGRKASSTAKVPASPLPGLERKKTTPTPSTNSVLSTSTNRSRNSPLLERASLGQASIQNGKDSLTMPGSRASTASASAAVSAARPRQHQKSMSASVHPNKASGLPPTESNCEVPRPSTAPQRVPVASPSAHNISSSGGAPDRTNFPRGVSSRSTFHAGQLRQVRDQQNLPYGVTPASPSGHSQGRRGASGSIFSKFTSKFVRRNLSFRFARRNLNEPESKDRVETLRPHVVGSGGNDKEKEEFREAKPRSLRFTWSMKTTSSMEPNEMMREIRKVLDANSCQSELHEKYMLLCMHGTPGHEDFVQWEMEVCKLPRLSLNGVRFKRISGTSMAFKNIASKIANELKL
CO[C@H]1C[C@@H]2CC[C@@H](C)[C@@](O)(O2)C(=O)C(=O)N2CCCC[C@H]2C(=O)O[C@H]([C@H](C)C[C@@H]2CC[C@@H](O)[C@H](OC)C2)CC(=O)[C@H](C)/C=C(\C)[C@@H](O)[C@@H](OC)C(=O)[C@H](C)C[C@H](C)/C=C/C=C/C=C/1C: 104%
COc1cc2nccc(Oc3ccc(NC(=S)NC(=O)c4ccccc4C)cc3)c2cc1OC: 82.3%
OCC(O)CCON=C1C(c2c(O)[nH]c3ccccc23)=Nc2ccccc21 (stereo not shown): 57.4%
O=c1c2ccccc2[nH]c(=S)n1CCN1CCC(=C(c2ccc(F)cc2)c2ccc(F)cc2)CC1: 108%
Oc1ccc(-c2nc(-c3ccncc3)c(-c3ccc(F)cc3)[nH]2)cc1: 99%
O=C1NC(=O)C(c2cn(CCCn3ccnc3)c3ccccc23)=C1Nc1ccccc1: 97.1%
Cc1nc(-c2ccccc2)c(-c2ccncc2)o1: 94.3%
Cc1ccc(NC(=O)c2ccc(CN3CCN(C)CC3)cc2)cc1Nc1nc(-c2cccnc2)cs1: 104%
NCCNc1ncc(C(N)=O)c(Nc2cccc(C(F)(F)F)c2)n1: 78.9%
N#CC(C#N)=C(N)/C(C#N)=C/c1ccc(O)cc1: 91.3%
COc1ccc(CNC(=O)Nc2ncc([N+](=O)[O-])s2)cc1: 106%
COc1ccc(OC)c2c(=S)c3ccccc3[nH]c12: 93.9%
COc1cc2ncnc(Nc3ccc(Oc4ccccc4)cc3)c2cc1OC: 95.3%
Nc1[nH]nc2nc3ccccc3nc12: 110%
O=C1NC(=O)C(c2cn(CCCO)c3ncccc23)=C1c1cnccn1: 97.5%

Set 4 — read-out: cell-free assay; technique: competition with immobilised ligand; tested at: 1 µM; quantity: remaining binding
SMILES: CC(=O)C1=C(C)N(c2cccc(C(F)(F)F)c2)C(=O)N[C@@H]1c1ccc(C#N)nc1
Transient receptor potential cation channel subfamily M member 6 (TRPM6, Homo sapiens, UniProt Q9BX84): 83.8%
Serine/threonine-protein kinase RIO3 (RIOK3, Homo sapiens, UniProt O14730): 100%
Serine/threonine-protein kinase DCLK1 (DCLK1, Homo sapiens, UniProt O15075): 85.1%
Receptor-type tyrosine-protein kinase FLT3 (FLT3, Homo sapiens, UniProt P36888, ITD): 61.2%

Set 5 — cell line: HuT78; tested at: 2 µM; time: 48 h; relative to: untreated; quantity: viability
COc1cc2ncnc(Oc3ccc(CC(=O)Nc4cnn(C(C)C)c4)cc3)c2cc1OC: 123%
O=C1NC(=O)C(=Cc2ccc(-c3ccc(F)cc3)o2)S1 (stereo in doubt): 149%
Cc1[nH]nc2ccc(-c3cncc(OC[C@@H](N)Cc4ccccc4)c3)cc12: 11.1%
Cc1cc(CS(=O)(=O)c2ccccc2)cc(OCc2ccc(CN3CCC[C@@H]3CO)cc2)c1: 120%
COc1cccc(-c2cc(=O)c3ccccc3o2)c1N: 123%

Some of these lines once more (set 3):
O=c1c2ccccc2[nH]c(=S)n1CCN1CCC(=C(c2ccc(F)cc2)c2ccc(F)cc2)CC1: 108%
Cc1nc(-c2ccccc2)c(-c2ccncc2)o1: 94.3%
Nc1[nH]nc2nc3ccccc3nc12: 110%
O=C1NC(=O)C(c2cn(CCCO)c3ncccc23)=C1c1cnccn1: 97.5%
COc1cc2nccc(Oc3ccc(NC(=S)NC(=O)c4ccccc4C)cc3)c2cc1OC: 82.3%
